Measurements pooled from the literature.
Protocols differ between the studies behind these lines.
Target: Adenosine receptor A1 (ADORA1, Homo sapiens, UniProt P30542)
Sequence of UniProt P30542 (whole entry, looked up): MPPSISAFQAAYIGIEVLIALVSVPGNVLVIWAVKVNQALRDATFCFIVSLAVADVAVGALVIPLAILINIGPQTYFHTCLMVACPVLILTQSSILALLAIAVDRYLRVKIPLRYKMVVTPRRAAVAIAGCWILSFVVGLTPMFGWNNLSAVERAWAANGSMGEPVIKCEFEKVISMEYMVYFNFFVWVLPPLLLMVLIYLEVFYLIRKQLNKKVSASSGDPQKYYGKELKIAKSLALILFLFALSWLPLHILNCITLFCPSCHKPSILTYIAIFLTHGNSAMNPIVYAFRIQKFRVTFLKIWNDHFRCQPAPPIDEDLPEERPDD

Compound = O=C1c2sc(-c3ccc(N4CCC(F)C4)nc3F)nc2CCN1c1cccnc1 (stereo not drawn); effect on = ligand displacement; method = radioligand; tested at = 1 µM; inhibition = 2%
Compound = Cn1ccc2cc(-n3c(=O)[nH]c4sc5c(c4c3=O)CCCC5)ccc21; effect on = cell-free assay; method = radioligand; tested at = 10 µM; inhibition = -1%
Compound = O=C(O)COc1cccc(NC(=O)c2cc(-c3cccc(F)c3)ccc2F)c1; effect on = ligand displacement; method = radioligand; tested at = 10 µM; inhibition = 3%
Compound = OCC1OC(n2cnc3c(NCc4ccc(Br)s4)ncnc32)C(O)C1O (stereo not drawn); effect on = ligand displacement; method = radioligand; tested at = 10 µM; inhibition = 49%
Compound = COc1ccc(S(=O)(=O)N2CCc3ccccc3C2)cc1N1CCN(C(=O)c2ccc(F)cc2C(F)(F)F)CC1; effect on = ligand displacement; method = radioligand; tested at = 1 µM; inhibition = 2.7%
Compound = CC(=O)c1cnc(N)nc1N1CC[C@H]1c1nn2ccc(Cl)c2c(=O)n1-c1ccccc1; effect on = ligand displacement; method = radioligand; tested at = 10 µM; inhibition = 11%
Compound = Cc1[nH]nc2c1N=C(c1ccccc1Cl)c1cnc(N3CCOCC3)cc1N2; effect on = cell-free assay; tested at = 10 µM; inhibition = 18%
Compound = COCC(=O)N1CCc2cc(-c3csc(NC(=O)c4cc(OC)cc(OC)c4)n3)ccc21; effect on = ligand displacement; method = radioligand; tested at = 10 µM; inhibition = 20%
Compound = CO[C@@H](C)c1c(NC(=O)Nc2cnc(-n3nccn3)c(C(F)(F)F)c2)cnc2sc(C)nc12; effect on = ligand displacement; method = radioligand; tested at = 10 µM; inhibition = 53.9%

Excerpt of the above:
Compound = CC(=O)c1cnc(N)nc1N1CC[C@H]1c1nn2ccc(Cl)c2c(=O)n1-c1ccccc1; effect on = ligand displacement; method = radioligand; tested at = 10 µM; inhibition = 11%
